Results of several laboratories.
Each numbered part is a random draw from the data of one study; scales do not carry over between parts. Values joined by “and” are separate records of one study, mostly repeats; a detail may differ.
UniProt P49760, sequence (whole entry, looked up): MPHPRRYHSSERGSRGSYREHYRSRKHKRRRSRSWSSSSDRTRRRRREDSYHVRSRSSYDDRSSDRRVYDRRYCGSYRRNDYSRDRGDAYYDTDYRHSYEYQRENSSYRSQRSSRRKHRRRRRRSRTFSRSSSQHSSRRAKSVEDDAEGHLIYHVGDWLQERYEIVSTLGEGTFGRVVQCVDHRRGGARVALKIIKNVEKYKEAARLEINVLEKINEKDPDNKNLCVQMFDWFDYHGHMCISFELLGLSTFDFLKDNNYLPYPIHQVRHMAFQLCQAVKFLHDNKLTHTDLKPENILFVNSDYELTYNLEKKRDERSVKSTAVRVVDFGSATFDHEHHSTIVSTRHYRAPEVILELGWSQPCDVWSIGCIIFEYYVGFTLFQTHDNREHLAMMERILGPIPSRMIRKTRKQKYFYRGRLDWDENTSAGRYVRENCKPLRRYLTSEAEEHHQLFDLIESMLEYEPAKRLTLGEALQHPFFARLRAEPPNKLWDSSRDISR
UniProt Q15208, sequence (whole entry, looked up): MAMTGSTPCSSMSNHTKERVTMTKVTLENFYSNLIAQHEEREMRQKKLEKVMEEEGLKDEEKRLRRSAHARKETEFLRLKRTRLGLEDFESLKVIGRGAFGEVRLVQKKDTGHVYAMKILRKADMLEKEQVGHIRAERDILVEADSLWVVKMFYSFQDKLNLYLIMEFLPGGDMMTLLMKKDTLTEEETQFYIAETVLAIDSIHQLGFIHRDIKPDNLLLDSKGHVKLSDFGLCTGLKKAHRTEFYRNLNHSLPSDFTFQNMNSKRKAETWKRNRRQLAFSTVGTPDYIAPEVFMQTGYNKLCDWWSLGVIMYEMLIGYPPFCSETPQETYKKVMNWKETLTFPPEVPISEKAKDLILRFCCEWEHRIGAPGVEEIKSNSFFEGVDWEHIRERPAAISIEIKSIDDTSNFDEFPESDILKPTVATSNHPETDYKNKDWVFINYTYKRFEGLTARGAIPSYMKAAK
UniProt Q99755, sequence (whole entry, looked up): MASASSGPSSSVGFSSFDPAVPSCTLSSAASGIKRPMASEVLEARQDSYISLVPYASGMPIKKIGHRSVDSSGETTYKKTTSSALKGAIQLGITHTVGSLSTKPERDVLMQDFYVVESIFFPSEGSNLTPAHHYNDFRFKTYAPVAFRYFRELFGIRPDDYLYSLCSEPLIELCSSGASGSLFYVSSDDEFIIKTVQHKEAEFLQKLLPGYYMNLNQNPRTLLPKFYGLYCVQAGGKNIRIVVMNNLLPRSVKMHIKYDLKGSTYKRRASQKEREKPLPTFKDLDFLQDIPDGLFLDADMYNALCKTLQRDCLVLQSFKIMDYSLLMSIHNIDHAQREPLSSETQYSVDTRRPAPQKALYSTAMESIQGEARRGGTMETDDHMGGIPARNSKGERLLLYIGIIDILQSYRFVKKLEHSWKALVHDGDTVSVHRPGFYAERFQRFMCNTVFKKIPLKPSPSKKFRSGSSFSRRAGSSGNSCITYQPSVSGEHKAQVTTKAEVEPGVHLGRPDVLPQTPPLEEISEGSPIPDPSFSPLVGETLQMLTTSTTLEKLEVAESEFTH
UniProt Q8WXR4, sequence (whole entry, looked up): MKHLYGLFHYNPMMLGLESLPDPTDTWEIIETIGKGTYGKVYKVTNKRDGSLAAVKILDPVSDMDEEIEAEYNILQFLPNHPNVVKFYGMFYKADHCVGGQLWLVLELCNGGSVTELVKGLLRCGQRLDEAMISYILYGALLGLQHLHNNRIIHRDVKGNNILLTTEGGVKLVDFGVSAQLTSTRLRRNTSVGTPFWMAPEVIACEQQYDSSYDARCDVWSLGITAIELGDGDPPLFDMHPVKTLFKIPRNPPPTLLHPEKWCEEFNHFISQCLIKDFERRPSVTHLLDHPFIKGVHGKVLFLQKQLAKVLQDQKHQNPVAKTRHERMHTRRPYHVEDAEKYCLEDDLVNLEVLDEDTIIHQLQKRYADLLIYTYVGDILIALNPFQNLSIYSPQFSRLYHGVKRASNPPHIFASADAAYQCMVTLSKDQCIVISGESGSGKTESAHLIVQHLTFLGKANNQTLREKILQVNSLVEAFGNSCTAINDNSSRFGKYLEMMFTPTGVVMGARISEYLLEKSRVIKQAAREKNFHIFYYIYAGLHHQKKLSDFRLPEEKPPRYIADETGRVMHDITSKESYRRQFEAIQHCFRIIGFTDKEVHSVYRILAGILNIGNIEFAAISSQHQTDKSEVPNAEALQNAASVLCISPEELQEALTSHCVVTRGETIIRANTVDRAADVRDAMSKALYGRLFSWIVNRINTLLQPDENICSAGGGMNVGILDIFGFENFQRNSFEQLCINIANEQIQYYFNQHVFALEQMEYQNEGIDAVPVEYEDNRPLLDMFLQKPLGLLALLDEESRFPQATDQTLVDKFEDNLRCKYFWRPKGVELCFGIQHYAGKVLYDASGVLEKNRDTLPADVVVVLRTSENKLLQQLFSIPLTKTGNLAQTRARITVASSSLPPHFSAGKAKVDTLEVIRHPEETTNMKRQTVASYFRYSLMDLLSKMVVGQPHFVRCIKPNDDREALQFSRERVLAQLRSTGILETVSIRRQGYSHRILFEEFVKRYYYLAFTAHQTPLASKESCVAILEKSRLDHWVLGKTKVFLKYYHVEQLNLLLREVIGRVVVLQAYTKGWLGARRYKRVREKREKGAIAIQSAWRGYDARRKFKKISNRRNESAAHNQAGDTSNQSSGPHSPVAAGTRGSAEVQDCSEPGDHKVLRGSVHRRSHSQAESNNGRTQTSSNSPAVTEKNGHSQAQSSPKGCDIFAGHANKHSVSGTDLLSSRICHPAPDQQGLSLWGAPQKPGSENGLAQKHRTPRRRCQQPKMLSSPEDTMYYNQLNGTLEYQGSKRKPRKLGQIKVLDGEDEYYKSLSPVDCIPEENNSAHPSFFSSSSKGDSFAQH
UniProt Q96Q40, sequence (whole entry, looked up): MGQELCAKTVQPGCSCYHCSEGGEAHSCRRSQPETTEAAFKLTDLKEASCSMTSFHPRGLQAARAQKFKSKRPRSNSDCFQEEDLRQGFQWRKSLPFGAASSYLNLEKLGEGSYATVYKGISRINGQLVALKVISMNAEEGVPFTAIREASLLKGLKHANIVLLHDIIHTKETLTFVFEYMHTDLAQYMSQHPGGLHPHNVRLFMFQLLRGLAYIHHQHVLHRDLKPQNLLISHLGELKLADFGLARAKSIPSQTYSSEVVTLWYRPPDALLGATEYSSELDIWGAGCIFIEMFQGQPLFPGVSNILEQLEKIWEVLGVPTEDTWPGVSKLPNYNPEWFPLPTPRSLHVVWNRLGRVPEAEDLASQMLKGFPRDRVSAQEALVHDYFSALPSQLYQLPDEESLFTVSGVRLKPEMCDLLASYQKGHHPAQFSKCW
UniProt P68400, sequence (whole entry, looked up): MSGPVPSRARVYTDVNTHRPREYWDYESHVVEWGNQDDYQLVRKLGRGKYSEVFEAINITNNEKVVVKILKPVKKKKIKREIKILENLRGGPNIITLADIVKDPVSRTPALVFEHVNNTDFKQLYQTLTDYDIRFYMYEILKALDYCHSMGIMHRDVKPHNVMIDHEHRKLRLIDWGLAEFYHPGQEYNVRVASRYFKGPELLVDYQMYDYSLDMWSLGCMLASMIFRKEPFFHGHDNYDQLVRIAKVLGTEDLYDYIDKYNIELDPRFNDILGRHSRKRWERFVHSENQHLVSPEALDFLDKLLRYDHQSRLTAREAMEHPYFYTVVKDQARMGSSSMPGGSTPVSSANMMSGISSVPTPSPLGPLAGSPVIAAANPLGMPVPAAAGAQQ
UniProt Q96GD4, sequence (whole entry, looked up): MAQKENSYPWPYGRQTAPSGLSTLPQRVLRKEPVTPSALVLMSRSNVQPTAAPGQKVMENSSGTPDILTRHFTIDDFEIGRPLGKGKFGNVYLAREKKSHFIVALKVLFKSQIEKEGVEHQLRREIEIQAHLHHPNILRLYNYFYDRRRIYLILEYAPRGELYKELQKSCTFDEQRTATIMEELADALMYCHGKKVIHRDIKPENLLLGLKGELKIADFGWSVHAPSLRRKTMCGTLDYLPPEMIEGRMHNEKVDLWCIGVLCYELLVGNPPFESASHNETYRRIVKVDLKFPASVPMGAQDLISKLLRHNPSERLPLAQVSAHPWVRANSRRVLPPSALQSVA
UniProt P36894, sequence (whole entry, looked up): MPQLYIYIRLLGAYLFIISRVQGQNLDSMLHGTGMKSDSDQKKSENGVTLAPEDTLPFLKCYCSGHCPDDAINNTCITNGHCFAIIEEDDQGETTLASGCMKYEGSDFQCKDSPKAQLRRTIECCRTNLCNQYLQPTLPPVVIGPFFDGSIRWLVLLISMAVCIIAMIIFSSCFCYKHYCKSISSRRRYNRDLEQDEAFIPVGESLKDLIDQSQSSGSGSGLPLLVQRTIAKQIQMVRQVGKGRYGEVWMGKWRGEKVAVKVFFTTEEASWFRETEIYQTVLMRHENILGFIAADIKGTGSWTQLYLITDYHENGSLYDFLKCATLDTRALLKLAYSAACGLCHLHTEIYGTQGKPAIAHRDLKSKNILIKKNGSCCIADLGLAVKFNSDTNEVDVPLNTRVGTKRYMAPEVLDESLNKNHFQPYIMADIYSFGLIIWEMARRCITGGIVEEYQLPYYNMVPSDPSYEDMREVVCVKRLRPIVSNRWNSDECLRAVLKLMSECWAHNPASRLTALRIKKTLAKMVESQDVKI

Study 1
Compound: CC(=O)N[C@@H](Cc1c[nH]c2ccccc12)C(=O)N[C@@H](CCC(=O)C=[N+]=[N-])C(=O)OC(C)C
Route: subcutaneous
Dose: 0.3 mg/kg/day DON equivalent
Time: 5 days
Reading: higher = more metabolite
Measurement: metabolite peak area
UPLC-MS/MS, refers to: 3'-UMP; C57BL/6 CES1-/- mice, EL4 tumour: 900000 a.u. and 662000 a.u. and 363000 a.u. and 885000 a.u. and 474000 a.u. and 724000 a.u.
UPLC-MS/MS, refers to: uracil; C57BL/6 CES1-/- mice, EL4 tumour: 2.07e+08 a.u. and 2.91e+08 a.u. and 2.74e+08 a.u. and 1.74e+08 a.u. and 2.54e+08 a.u. and 2.66e+08 a.u.
UPLC-MS/MS metabolomics, refers to: fumarate; EL4, C57BL/6 CES1-/- mice, EL4 tumour, tumour: 1.15e+08 a.u. and 1.9e+08 a.u. and 1.64e+08 a.u. and 1.07e+08 a.u. and 1.63e+08 a.u. and 1.67e+08 a.u.
UPLC-MS/MS, refers to: 2'-UMP; C57BL/6 CES1-/- mice, EL4 tumour: 283000 a.u. and 286000 a.u. and 167000 a.u. and 255000 a.u. and 133000 a.u. and 314000 a.u.
UPLC-MS/MS metabolomics, refers to: dimethylarginine (ADMA + SDMA); EL4, C57BL/6 CES1-/- mice, EL4 tumour, tumour: 7.07e+08 a.u. and 8.37e+08 a.u. and 7.84e+08 a.u. and 5.87e+08 a.u. and 8.93e+08 a.u. and 7.63e+08 a.u.
UPLC-MS/MS metabolomics, refers to: dihydrobiopterin; EL4, C57BL/6 CES1-/- mice, EL4 tumour, tumour: 587000 a.u. and 543000 a.u. and 618000 a.u. and 395000 a.u. and 623000 a.u. and 503000 a.u.

Study 2
Target: Cyclin-dependent kinase 5, with p25 (CDK5, Homo sapiens, UniProt Q00535)
UniProt Q00535, sequence (whole entry, looked up): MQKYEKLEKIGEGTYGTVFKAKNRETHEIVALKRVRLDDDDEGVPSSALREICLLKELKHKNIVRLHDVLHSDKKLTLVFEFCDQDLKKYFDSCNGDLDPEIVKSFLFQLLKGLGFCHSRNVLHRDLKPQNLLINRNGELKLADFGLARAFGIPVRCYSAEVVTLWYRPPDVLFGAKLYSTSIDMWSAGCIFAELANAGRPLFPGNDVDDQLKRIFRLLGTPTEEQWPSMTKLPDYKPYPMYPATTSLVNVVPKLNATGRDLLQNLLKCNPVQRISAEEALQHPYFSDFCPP
Read-out: enzyme activity
Mode: inhibitor
Concentration: 0.5 µM
Reference: control
Measurement: remaining activity
Nc1ccc2ncnc(NCCc3ccc(Oc4ccccc4)cc3)c2c1: 90.6%
Cc1ccc(Nc2nccc(N(C)c3ccc4c(C)n(C)nc4c3)n2)cc1S(N)(=O)=O: 95.1%
O=C1NC(=O)C(c2cn(CCCn3ccnc3)c3ccccc23)=C1Nc1ccccc1: 86%
CNC(=O)c1cc(Oc2ccc(NC(=O)Nc3ccc(Cl)c(C(F)(F)F)c3)cc2)ccn1: 97.2%
O=c1c2ccccc2[nH]c(=S)n1CCN1CCC(=C(c2ccc(F)cc2)c2ccc(F)cc2)CC1: 93.5%
Cc1cccc(-c2[nH]c(C(C)(C)C)nc2-c2ccc3c(c2)OCO3)n1: 90.1%
CC(C)[C@H](CO)Nc1nc(Nc2cc(N)cc(Cl)c2)c2ncn(C(C)C)c2n1: 3.31%
O=C1NC(=O)C(c2cn(CCCO)c3ncccc23)=C1c1cnccn1: 103%
COc1ccc(C(=O)Nc2sc3c(c2C(N)=O)CCCC3)cc1OC: 94.2%
Cc1ccc(NC(=O)c2ccc(CN3CCN(C)CC3)cc2)cc1Nc1nc(-c2cccnc2)cs1: 104%
COc1cc2ncnc(Nc3ccc(Oc4ccccc4)cc3)c2cc1OC: 88.8%
Cn1c2ccccc2c2c3c(c4c5ccccc5n(CCC#N)c4c21)CNC3=O: 21.3%
CN(C)c1ccc(C=C2C(=O)Nc3ccccc32)cc1: 102%

Study 3
Structure (SMILES): CNCc1ccccc1-c1csc([C@H](C)Nc2nc(C)nc3cc(OC)c(OC)cc23)c1
Read-out: cell-free assay
Method: competition with immobilised ligand
Concentration: 1 µM
Measurement: remaining binding
CLK2 (Homo sapiens, UniProt P49760): 100%
MAPK7 (Homo sapiens, UniProt Q13164): 100%
Aurora kinase B (AURKB, Homo sapiens, UniProt Q96GD4): 99%
CDK15 (Homo sapiens, UniProt Q96Q40): 100%
RIPK4 (Homo sapiens, UniProt P57078): 75%
CSNK1A1L (Homo sapiens, UniProt Q8N752): 100%
EPHB3 (Homo sapiens, UniProt P54753): 100%
NEK3 (Homo sapiens, UniProt P51956): 87%
STK38 (Homo sapiens, UniProt Q15208): 87%
ROCK1 (Homo sapiens, UniProt Q13464): 93%
BMPR1A (Homo sapiens, UniProt P36894): 100%
EGFR (Homo sapiens, UniProt P00533, del747-750/T751S): 64%
HIPK2 (Homo sapiens, UniProt Q9H2X6): 76%
PIP5K1A (Homo sapiens, UniProt Q99755): 92%
Macrophage colony-stimulating factor 1 receptor, autoinhibited (CSF1R, Homo sapiens, UniProt P07333): 100%
Myosin-IIIb (MYO3B, Homo sapiens, UniProt Q8WXR4): 87%
CSNK2A1 (Homo sapiens, UniProt P68400): 91%
Tyrosine-protein kinase ABL1, non-phosphorylated (ABL1, Homo sapiens, UniProt P00519): 87%

Study 4
Compound: COc1ccc(-c2c(Nc3ccccn3)[nH]c3c(C4=CCCCC4)c(-c4ccccc4)nn3c2=O)cc1
Method: LC-MS/MS
Sample: plasma
Measurement: plasma concentration
refers to: S-adenosylmethionine; human cancer patients; 200 mg BID, 4 h, median, cycle 1 day 200: 12.8 ng/mL
refers to: S-adenosylmethionine; human cancer patients; 50 mg QD, 0 h, median, cycle 1 day 50: 19 ng/mL
human; oral, 200 mg twice daily, 1 h, mean: 12600 ng/mL
refers to: methionine; human cancer patients; 200 mg BID, 4 h, geometric mean, cycle 1 day 200: 67700 ng/mL

Some of these lines once more (study 2):
O=c1c2ccccc2[nH]c(=S)n1CCN1CCC(=C(c2ccc(F)cc2)c2ccc(F)cc2)CC1: 93.5%
Cc1cccc(-c2[nH]c(C(C)(C)C)nc2-c2ccc3c(c2)OCO3)n1: 90.1%
CC(C)[C@H](CO)Nc1nc(Nc2cc(N)cc(Cl)c2)c2ncn(C(C)C)c2n1: 3.31%
O=C1NC(=O)C(c2cn(CCCO)c3ncccc23)=C1c1cnccn1: 103%
